Experimental data collected from several papers.
Lines come from different studies, so protocols differ.

| SMILES | method | medium | time | pH | temperature | notes | kinetic solubility |
| --- | --- | --- | --- | --- | --- | --- | --- |
| Cc1ccc(NCC(=O)Nc2ccc(F)c(Cl)c2)cc1S(=O)(=O)N1CCOCC1 | – | water | – | – | – | – | 164 µM |
| CCC[C@]1(NC(=O)c2sccc2Cl)C[C@@H](O)C1 | nephelometry | HBSS with 1% DMSO | 6 h | pH 7.4 | – | – | ≥ 1000 µM |
| Cc1cnc(Nc2cc(C)c(C)c(C)c2)nc1Nc1ccc2oc(=O)[nH]c2c1 | – | aqueous buffer | – | pH 6.8 | – | hemifumarate salt | 1 µM |
| COc1cc2nc(N3CCCCC3)nc(NC3CCN(C)CC3)c2cc1OC | nephelometry | – | – | pH 6.5 | – | – | 6.3 to 12.5 µg/mL |
| Cc1nc(N[C@@H](C)c2ccc(-c3nc(C4CC4)no3)cc2)c2cc(C)oc2n1 | – | – | – | pH 7.4 | – | – | 0.05 µM |
| Cc1[nH]c(=O)c(CNC(=O)c2ccc(C(F)(F)F)nc2)c2c1CCCC2 | U-HPLC | 20% DMSO in water | – | – | – | – | 132 µg/mL |
| COC[C@H](NC(=O)[C@H](CCc1ccccc1)NC(=O)CN1CCOCC1)C(=O)N[C@H](/C=C/S(C)(=O)=O)CC(C)C | – | water | – | – | – | – | 198 µM |
| Cc1[nH]c(=O)c(CNC(=O)c2ccc(C(F)(F)F)cn2)c2c1CCCC2 | U-HPLC | 20% DMSO in water | – | – | – | – | 102 µg/mL |
| S=C(Nc1ccc(Cl)cc1)Nc1cccc2[nH]ccc12 | – | PBS with SDS | 2 h | pH 7.4 | 37 °C | 1% DMSO | > 100 µM |

Repeated from above:
| SMILES | method | medium | time | pH | temperature | notes | kinetic solubility |
| --- | --- | --- | --- | --- | --- | --- | --- |
| Cc1[nH]c(=O)c(CNC(=O)c2ccc(C(F)(F)F)cn2)c2c1CCCC2 | U-HPLC | 20% DMSO in water | – | – | – | – | 102 µg/mL |
